Results of several laboratories.
Protocols differ between the studies behind these lines.
Organism: Pseudomonas aeruginosa

SMILES	assay	system	conditions	MIC
CC[C@H]1OC(=O)[C@H](C)[C@@H](O[C@H]2C[C@@](C)(OC)[C@@H](O)[C@H](C)O2)[C@H](C)[C@@H](O[C@@H]2O[C@H](C)C[C@H](N(C)C)[C@H]2O)[C@](C)(O)C[C@@H](C)CN(C)[C@H](C)[C@@H](O)[C@]1(C)O	microbial growth, broth dilution			1 µg/mL
COc1c(NC(=O)c2ccc(NC(=O)[C@H](Cc3c[nH]nn3)NC(=O)c3ccc(NC(=O)/C(C)=C/c4ccc(O)cc4)cc3)cc2)ccc(C(=O)Nc2ccc(C(=O)O)cc2)c1O	broth microdilution	ciprofloxacin-resistant		32 µg/mL
COc1ccc2ccc(O)c(/C=N/[C@H]3CCCC[C@H]3/N=C/c3cccc(OC)c3O)c2c1	microbial growth, broth dilution		clinical isolate	> 40 µM
C#CCNC(=O)C(C)(C)O/N=C(\C(=O)N[C@@H]1C(=O)N(S(=O)(=O)O)[C@H]1C)c1csc(N)n1	microbial growth, agar dilution	PAO1		64 µg/mL
CC[C@H]1OC(=O)[C@H](C)[C@@H](OC(=O)Cc2c(F)cc([N+](=O)[O-])cc2F)[C@H](C)[C@@H](O[C@@H]2O[C@H](C)C[C@H](N(C)C)[C@H]2O)[C@](C)(OC)C[C@@H](C)C(=O)[C@H](C)[C@@H](O)[C@]1(C)O		DSM 50071	compound alone	> 128 µM
CC(C)C[C@@H]1NC(=O)[C@@H](CC(C)C)NC(=O)[C@H](CCN)NC(=O)[C@@H](NC(=O)[C@H](CCN)NC(=O)[C@@H](N)[C@@H](C)O)CCNC(=O)[C@H]([C@@H](C)O)NC(=O)[C@H](CCN)NC(=O)[C@H](CCN)NC1=O	broth microdilution	ATCC 27853, cation-adjusted Mueller-Hinton broth	18 to 20 h, 37 °C, 0.002% polysorbate 80	> 128 µg/mL
CC[C@H](C)[C@H](NC(=O)[C@@H](CCCNC(=N)N)NC(=O)[C@H](CCCNC(=N)N)NC(=O)[C@@H]1CCCN1C(=O)[C@@H]1CCCN1C(=O)[C@H](CCCNC(=N)N)NC(=O)[C@@H]1CCCN1C(=O)[C@H](CCCNC(=N)N)NC(=O)[C@@H]1CCCN1C(=O)[C@H](CCCNC(=N)N)NC(=O)[C@H](Cc1ccc(O)cc1)NC(=O)[C@@H]1CCCN1C(=O)[C@@H]1CCCN1C(=O)[C@H](CCCCN)NC(=O)[C@H](CC(=O)O)NC(=O)[C@@H](N)C(C)C)C(=O)N[C@@H](Cc1ccc(O)cc1)C(=O)N[C@@H](CC(N)=O)C(=O)N[C@H](CCCNC(=N)N)C(N)=O	broth microdilution	DSM 1117	18 h, 37 °C, 25% MHB2	32 µg/mL
CCCCCCCC[N+](C)(C)CCCCCCCCOc1cc(OCCCCCCCC[N+](C)(C)CCCCCCCC)cc(OCCCCCCCC[N+](C)(C)CCCCCCCC)c1.[Br-].[Br-].[Br-]		PAO1		4 µM
CC[C@H]1OC(=O)[C@H](C)[C@@H](OC(=O)c2ccc(N)cc2)[C@H](C)[C@@H](O[C@@H]2O[C@H](C)C[C@H](N(C)C)[C@H]2O)[C@](C)(OC)C[C@@H](C)C(=O)[C@H](C)[C@@H](O)[C@]1(C)O		PAO397, five efflux pumps deleted		> 32 µg/mL
CN[C@H](CC(C)C)C(=O)N[C@H]1C(=O)N[C@@H](CC(N)=O)C(=O)N[C@H]2C(=O)N[C@H]3C(=O)N[C@H](C(=O)N[C@H](C(=O)N[C@@H](CCCNC(=N)N)C(N)=O)c4cc(O)cc(O)c4-c4cc3ccc4O)[C@H](O)c3ccc(c(Cl)c3)Oc3cc2cc(c3O[C@@H]2O[C@H](CO)[C@@H](O)[C@H](O)[C@H]2O[C@H]2C[C@](C)(NCc3ccc(OCc4cn(CC(=O)N[C@H](C(=O)N[C@@H](CCN)C(=O)N[C@H]5CCNC(=O)[C@H]([C@@H](C)O)NC(=O)[C@H](CCN)NC(=O)[C@H](CCN)NC(=O)[C@H](CC(C)C)NC(=O)[C@@H](CC(C)C)NC(=O)[C@H](CCN)NC5=O)[C@@H](C)O)nn4)c(OC)c3)[C@H](O)[C@H](C)O2)Oc2ccc(cc2Cl)[C@H]1O	broth microdilution	ATCC 27853, cation-adjusted Mueller-Hinton broth	18 to 20 h, 37 °C, 0.002% polysorbate 80	16 µg/mL
CCCCCCC#Cc1cncc(-c2nnc(SCc3ccc(Cl)cc3)n2C)c1	microbial growth, broth dilution	DSM1128		> 64 µg/mL
CCCCCCCCn1cc[n+](CCCCCCCCCCOc2cc(OCCCCCCCCCC[n+]3ccn(CCCCCCCC)c3)cc(OCCCCCCCCCC[n+]3ccn(CCCCCCCC)c3)c2)c1.[Br-].[Br-].[Br-]		PAO1		32 µM
COc1cc(C(=O)Nc2ccc(C(=O)O)c(O)c2)ccc1NC(=O)c1ccc(NC(=O)[C@H](Cc2c[nH]nn2)NC(=O)c2ccc(NC(=O)/C(C)=C/c3ccc(O)cc3)cc2)cc1	broth microdilution	ciprofloxacin-sensitive		32 µg/mL
CO[C@H]1O[C@H](COC(c2ccccc2)(c2ccccc2)c2ccccc2)[C@@H](OS(=O)(=O)c2ccccc2)[C@H](OS(=O)(=O)c2ccccc2)[C@H]1OS(=O)(=O)c1ccccc1	microbial growth, broth dilution			0.25 µg/mL
COc1c(C)c(OC(=O)c2ccc3ccccc3c2)c(C)c(O)c1C(=O)/C=C/c1ccccc1	microbial growth, broth dilution	ATCC27853		5000 µg/mL
CC[C@H]1OC(=O)[C@H](C)[C@@H](OC(=O)Cc2ccc3c(c2)OCO3)[C@H](C)[C@@H](O[C@@H]2O[C@H](C)C[C@H](N(C)C)[C@H]2O)[C@](C)(OC)C[C@@H](C)C(=O)[C@H](C)[C@@H](O)[C@]1(C)O		DSM 50071	together with: colistin sulfate at 0.1 x MIC	> 64 µM
N=C(N)NCCC[C@@H]1NC(=O)[C@H](CCCNC(=N)N)NC(=O)[C@@H](CCCNC(=N)N)NC(=O)[C@@H](CCCNC(=N)N)NC(=O)[C@@H](C(c2ccccc2)c2ccccc2)NC(=O)[C@@H](Cc2c[nH]c3ccccc23)NC(=O)[C@@H](C(c2ccccc2)c2ccccc2)NC1=O		ATCC 27853		64 µg/mL
CO[C@@H]1[C@@H](OC(N)=O)[C@@H](O)[C@H](Oc2ccc3c(O)c(NC(=O)c4ccc(O)c(CC=C(C)C)c4)c(=O)oc3c2C)OC1(C)C	microbial growth, broth dilution	PAO1		1020 µg/mL
C#CCO/N=C(\C(=O)N[C@@H]1C(=O)N(S(=O)(=O)O)[C@H]1C)c1csc(N)n1	microbial growth, agar dilution	PAO1		64 µg/mL
C/C(=C\c1ccc(O)cc1)C(=O)Nc1ccc(C(=O)N[C@@H](Cc2c[nH]nn2)C(=O)Nc2ccc(C(=O)Nc3ccc(C(=O)Nc4ccc(C(=O)O)cc4)cc3)cc2)cc1	broth microdilution	ciprofloxacin-resistant		32 µg/mL
C=CCO/N=C(\C(=O)N[C@@H]1C(=O)N(OS(=O)(=O)O)C1(C)C)c1nsc(N)n1	agar dilution	PAO1		4 µg/mL
COc1ccc2ccc(O)c(/C=N/[C@H]3CCCC[C@H]3/N=C/c3cc(F)ccc3O)c2c1	microbial growth, broth dilution		clinical isolate	> 40 µM
CC1(C)[C@H](NC(=O)/C(=N\OC2(C(=O)O)CCCCC2)c2csc(N)n2)C(=O)N1OS(=O)(=O)O	agar dilution	ATCC 27853		32 µg/mL
COc1c(C)c(OS(=O)(=O)c2ccccc2)c(C)c2c1C(=O)CC(c1ccccc1)O2 (stereo not drawn)	microbial growth, broth dilution	ATCC27853		5000 µg/mL

Some of these lines once more:
SMILES	assay	system	conditions	MIC
COc1cc(C(=O)Nc2ccc(C(=O)O)c(O)c2)ccc1NC(=O)c1ccc(NC(=O)[C@H](Cc2c[nH]nn2)NC(=O)c2ccc(NC(=O)/C(C)=C/c3ccc(O)cc3)cc2)cc1	broth microdilution	ciprofloxacin-sensitive		32 µg/mL
CC[C@H]1OC(=O)[C@H](C)[C@@H](OC(=O)Cc2c(F)cc([N+](=O)[O-])cc2F)[C@H](C)[C@@H](O[C@@H]2O[C@H](C)C[C@H](N(C)C)[C@H]2O)[C@](C)(OC)C[C@@H](C)C(=O)[C@H](C)[C@@H](O)[C@]1(C)O		DSM 50071	compound alone	> 128 µM
CC[C@H]1OC(=O)[C@H](C)[C@@H](O[C@H]2C[C@@](C)(OC)[C@@H](O)[C@H](C)O2)[C@H](C)[C@@H](O[C@@H]2O[C@H](C)C[C@H](N(C)C)[C@H]2O)[C@](C)(O)C[C@@H](C)CN(C)[C@H](C)[C@@H](O)[C@]1(C)O	microbial growth, broth dilution			1 µg/mL
CC1(C)[C@H](NC(=O)/C(=N\OC2(C(=O)O)CCCCC2)c2csc(N)n2)C(=O)N1OS(=O)(=O)O	agar dilution	ATCC 27853		32 µg/mL
